# Results collected from several papers.
# Compare with care: the assays were run in different laboratories.
# Sequence of UniProt O75460 (whole entry, looked up): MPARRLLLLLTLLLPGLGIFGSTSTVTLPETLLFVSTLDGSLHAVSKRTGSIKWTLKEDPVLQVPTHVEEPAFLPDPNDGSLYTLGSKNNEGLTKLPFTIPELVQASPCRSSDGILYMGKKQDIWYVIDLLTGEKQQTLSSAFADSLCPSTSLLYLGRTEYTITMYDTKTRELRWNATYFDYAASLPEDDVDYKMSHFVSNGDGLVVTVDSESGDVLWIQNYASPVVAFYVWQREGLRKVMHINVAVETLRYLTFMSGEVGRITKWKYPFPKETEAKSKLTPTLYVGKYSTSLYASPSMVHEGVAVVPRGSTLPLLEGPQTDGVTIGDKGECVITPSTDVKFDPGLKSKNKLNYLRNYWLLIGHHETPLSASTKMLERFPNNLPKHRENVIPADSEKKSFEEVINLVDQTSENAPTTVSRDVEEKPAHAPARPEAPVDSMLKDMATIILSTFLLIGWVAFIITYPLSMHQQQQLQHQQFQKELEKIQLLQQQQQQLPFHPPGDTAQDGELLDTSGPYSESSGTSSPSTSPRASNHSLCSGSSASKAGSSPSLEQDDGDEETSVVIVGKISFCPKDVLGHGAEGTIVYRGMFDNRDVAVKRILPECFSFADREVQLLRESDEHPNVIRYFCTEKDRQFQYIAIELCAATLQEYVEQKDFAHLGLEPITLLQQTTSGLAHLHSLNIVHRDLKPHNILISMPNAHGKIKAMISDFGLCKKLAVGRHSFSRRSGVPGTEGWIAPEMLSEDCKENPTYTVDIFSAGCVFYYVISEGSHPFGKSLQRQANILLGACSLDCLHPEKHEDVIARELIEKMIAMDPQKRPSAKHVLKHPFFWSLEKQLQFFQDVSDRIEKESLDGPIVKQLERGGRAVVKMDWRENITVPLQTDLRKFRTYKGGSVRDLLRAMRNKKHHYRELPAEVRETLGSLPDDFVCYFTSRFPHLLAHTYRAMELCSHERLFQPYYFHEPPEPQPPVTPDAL
# Sequence of UniProt P07332 (whole entry, looked up): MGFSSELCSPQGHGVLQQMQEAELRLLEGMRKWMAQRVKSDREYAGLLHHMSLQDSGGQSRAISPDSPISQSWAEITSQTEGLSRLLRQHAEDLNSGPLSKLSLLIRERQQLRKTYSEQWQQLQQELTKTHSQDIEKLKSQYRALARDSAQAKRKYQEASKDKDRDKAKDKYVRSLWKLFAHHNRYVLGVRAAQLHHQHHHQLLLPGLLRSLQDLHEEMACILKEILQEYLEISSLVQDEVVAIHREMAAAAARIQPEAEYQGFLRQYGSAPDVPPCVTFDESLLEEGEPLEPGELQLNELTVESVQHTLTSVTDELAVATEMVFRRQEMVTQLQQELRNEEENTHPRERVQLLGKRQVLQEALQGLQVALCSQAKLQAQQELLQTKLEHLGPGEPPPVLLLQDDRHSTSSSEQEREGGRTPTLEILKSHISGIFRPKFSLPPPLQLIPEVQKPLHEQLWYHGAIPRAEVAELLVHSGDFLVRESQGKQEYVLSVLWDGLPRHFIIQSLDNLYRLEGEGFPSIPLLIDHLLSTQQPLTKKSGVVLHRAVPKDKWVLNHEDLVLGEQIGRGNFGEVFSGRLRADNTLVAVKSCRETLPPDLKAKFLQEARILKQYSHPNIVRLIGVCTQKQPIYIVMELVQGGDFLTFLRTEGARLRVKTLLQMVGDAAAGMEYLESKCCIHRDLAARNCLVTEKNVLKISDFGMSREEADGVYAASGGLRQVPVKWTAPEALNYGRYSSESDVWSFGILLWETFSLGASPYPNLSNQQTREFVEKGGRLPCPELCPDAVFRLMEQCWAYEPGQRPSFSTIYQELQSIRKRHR
# Sequence of UniProt P29322 (whole entry, looked up): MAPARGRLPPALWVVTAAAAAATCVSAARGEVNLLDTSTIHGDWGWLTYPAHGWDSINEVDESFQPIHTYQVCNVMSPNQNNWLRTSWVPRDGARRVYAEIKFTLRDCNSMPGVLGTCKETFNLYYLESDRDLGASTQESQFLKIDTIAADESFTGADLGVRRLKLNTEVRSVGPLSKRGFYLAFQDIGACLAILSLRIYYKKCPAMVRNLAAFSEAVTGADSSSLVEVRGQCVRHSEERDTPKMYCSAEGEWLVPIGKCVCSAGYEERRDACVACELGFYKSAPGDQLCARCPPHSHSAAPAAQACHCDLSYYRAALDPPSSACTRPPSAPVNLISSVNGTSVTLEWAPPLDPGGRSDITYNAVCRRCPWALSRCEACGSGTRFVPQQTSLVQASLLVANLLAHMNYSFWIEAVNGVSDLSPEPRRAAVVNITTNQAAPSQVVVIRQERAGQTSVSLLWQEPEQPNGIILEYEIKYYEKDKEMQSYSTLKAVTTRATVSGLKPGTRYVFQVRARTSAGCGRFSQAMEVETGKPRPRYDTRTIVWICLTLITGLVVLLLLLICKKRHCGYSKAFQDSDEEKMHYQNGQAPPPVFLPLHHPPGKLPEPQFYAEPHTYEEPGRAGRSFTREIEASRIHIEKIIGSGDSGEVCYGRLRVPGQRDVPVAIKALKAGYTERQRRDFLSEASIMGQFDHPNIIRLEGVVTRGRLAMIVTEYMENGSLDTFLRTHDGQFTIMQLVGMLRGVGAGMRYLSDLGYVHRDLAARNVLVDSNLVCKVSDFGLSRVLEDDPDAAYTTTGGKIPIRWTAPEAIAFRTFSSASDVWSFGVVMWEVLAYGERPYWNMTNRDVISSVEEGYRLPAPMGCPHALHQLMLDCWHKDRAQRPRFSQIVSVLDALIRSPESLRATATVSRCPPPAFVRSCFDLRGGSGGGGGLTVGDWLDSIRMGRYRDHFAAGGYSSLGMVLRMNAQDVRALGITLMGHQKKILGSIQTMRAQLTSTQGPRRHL
SMILES,target or system,test,test system,setting,quantity,value
CCN(O)N=Nc1ccc(S(=O)(=O)Nc2cc(C)on2)cc1,,ABTS scavenging,,20 µg/mL,inhibition,6.42%
O=C(Nc1ccc(Oc2nnc(-c3ccc(Cl)cc3)c3ccccc23)cc1)c1cccc([N+](=O)[O-])c1,MCF7,"cell growth or viability, MTT",,"1.25 µM, 24 h",viability,3.63%
Nc1ccn([C@@H]2O[C@H](CO)[C@@H](O)[C@H]2O)c(=O)n1,Cryptosporidium parvum,"parasite growth, imaging",HCT-8,"1 mM, 24 h, intracellular",activity vs control,94%
COc1cccc(C(=O)C#Cc2ccc(F)c(F)c2)c1,Pseudomonas aeruginosa,"microbial growth, absorbance",,"100 µM, 24 h",activity vs control,85%
O=C(Nc1ccc2c(c1)OC(F)(F)O2)Nc1ccc(Cl)c(C(F)(F)F)c1,Staphylococcus aureus,microbial growth,,clinical isolate,MIC,0.3 µM
Cc1noc(NS(=O)(=O)c2ccc(N=NN(C)O)cc2)c1C,,ABTS scavenging,,20 µg/mL,inhibition,23.2%
O=C(O)CCC(=O)C(=O)O,Cryptosporidium parvum,"parasite growth, imaging",HCT-8,"1 mM, 24 h, intracellular",activity vs control,96.7%
CN(Cc1ccc(C(C)(C)C)cc1)Cc1cccc2ccccc12,Trichophyton rubrum,"microbial growth, disc diffusion",ATCC28188,"0.0005 µg/mL, 6 days",inhibition zone,17.2 mm
COc1cc(C#CC(=O)c2ccc(C)cc2)ccc1O,Pseudomonas aeruginosa,"microbial growth, absorbance",,"100 µM, 24 h",activity vs control,113%
COc1cc(-c2cncc3c2CN(C)Cc2cc(N4CCNCC4)ccc2-3)cc(OC)c1OC,"FES (Homo sapiens, UniProt P07332)","enzyme activity, inhibitor",,1 µM,remaining activity,86%
COc1cc2ncnc(Nc3cccc(Br)c3)c2cc1OC,Staphylococcus aureus,microbial growth,NCTC8325,,MIC,> 30 µM
COc1cc(C#CC(=O)c2ccccc2)ccc1O,Pseudomonas aeruginosa,"microbial growth, absorbance",,"100 µM, 24 h",activity vs control,91%
CC(C)C(=O)O,Cryptosporidium parvum,"parasite growth, imaging",HCT-8,"1 mM, 24 h, intracellular",activity vs control,107%
COc1cc2nccc(Oc3ccc(NC(=O)Nc4ccc(F)cc4F)c(F)c3)c2cc1OC,Staphylococcus aureus,microbial growth,NCTC8325,,MIC,> 30 µM
COc1ccc(C(=O)C#Cc2ccc(O)c(OC)c2)cc1,Pseudomonas aeruginosa,"microbial growth, absorbance",,"100 µM, 24 h",activity vs control,86%
C=CC(=O)N1CCC(COCC(=O)N2CCN(c3nc(-c4cnc(N)nc4C(F)F)nc(N4CCOC[C@@H]4C)n3)CC2)CC1,"ERN1 (Homo sapiens, UniProt O75460)","binding, competition with immobilised ligand",,1 µM,remaining binding,100%
CN(Cc1ccc(C2(C(F)(F)F)CC2)cc1)Cc1cccc2ccccc12,Trichophyton rubrum,"microbial growth, disc diffusion",ATCC28188,"0.008 µg/mL, 6 days",inhibition zone,34 mm
O=C(O)c1ccc2c(c1)nc(Nc1cccc(Cl)c1)c1ccncc12,Staphylococcus aureus,microbial growth,NCTC8325,,MIC,> 30 µM
COc1cc(C#C[C@@H](O)CC(C)C)ccc1O,Pseudomonas aeruginosa,"microbial growth, absorbance",,"10 µM, 24 h",activity vs control,97%
Nc1ccn([C@@H]2O[C@H](COP(=O)(O)O)[C@@H](O)[C@H]2O)c(=O)n1,Cryptosporidium parvum,"parasite growth, imaging",HCT-8,"1 mM, 24 h, intracellular",activity vs control,101%
CNc1ncc2c(/C=C/C(=O)N3CCC(OC)CC3)nn(Cc3cccc(C(F)(F)F)c3)c2n1,"EPHA8 (Homo sapiens, UniProt P29322)","enzyme activity, inhibitor, radiometric",,1 µM,remaining activity,104%

# Repeated from above:
SMILES,target or system,test,test system,setting,quantity,value
O=C(O)c1ccc2c(c1)nc(Nc1cccc(Cl)c1)c1ccncc12,Staphylococcus aureus,microbial growth,NCTC8325,,MIC,> 30 µM
CN(Cc1ccc(C2(C(F)(F)F)CC2)cc1)Cc1cccc2ccccc12,Trichophyton rubrum,"microbial growth, disc diffusion",ATCC28188,"0.008 µg/mL, 6 days",inhibition zone,34 mm
